Measured values from different studies.
Protocols differ between the studies behind these lines. Numbers after ± are the reported error. Values after ≈ are worked out from the molar mass of the structure shown.
Organism: Mycobacterium tuberculosis

SMILES = CN1CCN(c2ccc(Nc3nccc(-c4ccncc4)n3)cc2C(F)(F)F)CC1; test system = H37Rv auxotroph; quantity = MIC; value = > 100 µM
SMILES = O=c1c2cc(Cl)ccc2[nH]c(=S)n1Cc1ccc(-c2nnn[nH]2)nc1; test system = PptT conditional knockdown; quantity = MIC90; value = 3.6 µM (≈ 1.34 µg/mL)
SMILES = NC(=O)c1cc(C2CC2)ccc1OCCc1cccc(F)c1; test = growth; test system = H37Rv-LP; setting = 120 h; quantity = IC90; value = 1.2 ± 0.41 µM
SMILES = COc1ccc(-c2cc(C(F)(F)F)c3c(N)c(C(=O)N4CCC4)sc3n2)cc1; test system = H37Rv wild type; setting = 120 h; quantity = IC90; value = inactive
SMILES = O=c1c2cc(Cl)cnc2[nH]c(=S)n1Cc1cccnc1; test system = PptT conditional knockdown; quantity = MIC90; value = 7.13 µM (≈ 2.17 µg/mL)
SMILES = CNC(=O)c1cc(C)ccc1OCCc1ccc(Br)cc1; test system = H37Rv-LP; scale = baseline: HepG2 CC50 over Mtb IC90; quantity = selectivity index; value = 45
SMILES = Cc1ncc([N+](=O)[O-])n1CCO; test system = H37Rv; setting = 10 µg/mL; quantity = activity; value = active
SMILES = COc1ccc(-c2cc(C(F)(F)F)c3cc(C(=O)NC(C)c4ccccc4)sc3n2)cc1 (centres unmarked); test = growth inhibition; test system = H37Rv LepB under-expressing; quantity = IC50; value = 1.5 ± 0.7 µM
SMILES = CC(O)c1ccc(OCCc2cccc(F)c2)c(C(N)=O)c1 (centres unmarked); test = growth; test system = H37Rv-LP; setting = 120 h; quantity = IC90; value = 6.3 ± 0.59 µM
SMILES = COc1ccc(-c2cc(C(F)(F)F)c3c(N)c(C(=O)N4CC(F)(F)C4)sc3n2)cc1; test = growth inhibition; test system = H37Rv LepB under-expressing; quantity = IC50; value = > 100 µM
SMILES = CNC(=O)c1cc(C)cnc1OCCc1cccc(F)c1; test system = H37Rv-LP; scale = baseline: HepG2 CC50 over Mtb IC90; quantity = selectivity index; value = 4
SMILES = NC(=S)c1cncc(Cn2c(=S)[nH]c3ccc(Cl)cc3c2=O)c1; test system = PptT conditional knockdown; quantity = MIC90; value = 0.68 µM (≈ 0.247 µg/mL)
SMILES = Nc1c(C(=O)Nc2ccccc2C(F)(F)F)sc2nc(-c3ccccc3)cc(C(F)(F)F)c12; test = growth inhibition; test system = H37Rv LepB under-expressing; quantity = IC50; value = > 100 µM
SMILES = CNC(=O)c1cc(C)ccc1OCCc1ccc(C2CC2)cc1; test = growth; test system = H37Rv-LP; setting = 120 h; quantity = IC90; value = 0.09 ± 0.02 µM
SMILES = COc1ccc(-c2cc(C)c3c(N)c(C(=O)Nc4cccc(C)c4C)sc3n2)cc1; test = growth inhibition; test system = H37Rv LepB under-expressing; quantity = IC50; value = > 100 µM
SMILES = CC(C)C(=O)OCc1cc2[nH]c(=S)n(Cc3cncnc3)c(=O)c2cc1Cl; test system = PptT conditional knockdown; quantity = MIC90; value = 0.353 µM (≈ 0.143 µg/mL)
SMILES = COc1ccc(-c2cc(C(F)(F)F)c3c(N)c(C(=O)Nc4cc(C)ccc4C)sc3n2)cc1; test system = H37Rv wild type; scale = baseline: HepG2 IC50 over M. tuberculosis IC90; quantity = selectivity index; value = < 1
SMILES = Cc1cc2c(=O)n(Cc3cccnc3)c(=S)[nH]c2cn1; test system = PptT conditional knockdown; quantity = MIC90; value = 0.21 µM (≈ 0.0597 µg/mL)
SMILES = Nc1c(C(=O)N2CC(F)(F)C2)sc2ncccc12; test = growth inhibition; test system = H37Rv LepB under-expressing; quantity = IC50; value = > 100 µM
SMILES = O=C(OCc1ccccc1)OCc1cc2[nH]c(=S)n(Cc3cccnc3)c(=O)c2cc1Cl; test system = PptT conditional knockdown; quantity = MIC90; value = 1.94 µM (≈ 0.908 µg/mL)
SMILES = CC(N)(CO)C(=O)Nc1ccc(C(=O)Nc2ccnc(=O)[nH]2)cc1 (centres unmarked); test system = H37Ra; setting = 100 µM; quantity = antimycobacterial activity; value = inactive
SMILES = CC(c1cccnc1)n1c(=S)[nH]c2ccc(Cl)cc2c1=O (centres unmarked); test system = PptT conditional knockdown; quantity = MIC90; value = 7.92 µM (≈ 2.52 µg/mL)
SMILES = NC(=O)c1cc(-c2ccsc2)ccc1OCCc1cccc(F)c1; test = growth; test system = H37Rv-LP; setting = 120 h; quantity = IC90; value = 0.35 ± 0.19 µM

Some of these lines once more:
SMILES = NC(=O)c1cc(C2CC2)ccc1OCCc1cccc(F)c1; test = growth; test system = H37Rv-LP; setting = 120 h; quantity = IC90; value = 1.2 ± 0.41 µM
SMILES = COc1ccc(-c2cc(C(F)(F)F)c3c(N)c(C(=O)N4CCC4)sc3n2)cc1; test system = H37Rv wild type; setting = 120 h; quantity = IC90; value = inactive
SMILES = O=c1c2cc(Cl)cnc2[nH]c(=S)n1Cc1cccnc1; test system = PptT conditional knockdown; quantity = MIC90; value = 7.13 µM (≈ 2.17 µg/mL)
